{"data": "Results gathered from unrelated publications", "note": "Lines come from different studies, so protocols differ. ± marks the error that the study gave."}
{"Structure (SMILES)": "N[C@@H]1c2ccccc2OC12CCN(c1cnc3c(N4CCCc5ncccc54)n[nH]c3n1)CC2", "test system": "advanced solid tumour patients", "setting": "oral, 100 mg once daily", "measurement": "serious TEAE grade ≥3", "result": "14.3%"}
{"Structure (SMILES)": "COc1cc2c(Oc3ccc4[nH]c(C)cc4c3F)ccnc2cc1OCC1(N)CC1", "test system": "paediatric refractory sarcoma patients", "setting": "12 mg", "measurement": "Triglyceride elevation incidence", "result": "18.2%"}
{"Structure (SMILES)": "Cn1cncc1-c1c(F)cncc1NC(=O)c1c(N)nn2cc(F)cnc12", "test system": "human patients", "setting": "oral, 130 mg once daily", "measurement": "grade ≥3 creatinine increase incidence", "result": "0%"}
{"Structure (SMILES)": "O=C(Nc1ccccc1)C1CCN(C(=O)Oc2cccnc2)CC1", "assay": "adverse event reporting", "test system": "healthy women", "setting": "oral, 60 mg, 7 days", "measurement": "subjects with Tachycardia adverse event", "result": "7.1%"}
{"Structure (SMILES)": "[O-][S+]1CCc2nc(N3CCC(c4ncc(Cl)cn4)CC3)nc(NC3(CO)CCC3)c21 (stereo not shown)", "assay": "phase I trial, measured: nervous system disorders", "test system": "healthy male volunteers", "setting": "dose not given, single rising dose, all cohorts", "measurement": "subjects with adverse events", "result": "41.7%"}
{"Structure (SMILES)": "C[C@H]1COCCN1c1nc(NCc2cccnc2C(F)(F)F)c2cccnc2n1", "test system": "anaesthetized rat", "setting": "intravenous, 10 mg/kg", "scale": "reference: control", "measurement": "PR change", "result": "13.8%"}
{"Structure (SMILES)": "CC(C)C[C@H](NC(=O)[C@H](CCCCN)NC(=O)OCC1c2ccccc2-c2ccccc21)C(=O)N[C@H](C(=O)N[C@@H](Cc1ccccc1)C(=O)N[C@@H](Cc1ccccc1)C(=O)N[C@@H](CCCCN)C(=O)NCC(=O)N[C@@H](Cc1ccccc1)C(=O)N[C@@H](C)C(=O)N[C@@H](Cc1c[nH]c2ccccc12)C(=O)N[C@@H](CC(N)=O)C(=O)N[C@H](C(=O)N[C@H]1CSSC[C@@H](C(=O)N[C@@H](Cc2c[nH]cn2)C(=O)N[C@@H](CCCNC(=N)N)C(=O)N[C@@H](CCCNC(=N)N)C(=O)N[C@@H](C)C(=O)N[C@@H](CC(N)=O)C(N)=O)NC(=O)[C@H](C(C)C)NC(=O)[C@H](CCCNC(=N)N)NC(=O)[C@H](C(C)C)NC(=O)CNC(=O)[C@H](CC(N)=O)NC(=O)[C@H](CCCNC(=N)N)NC(=O)[C@H](Cc2ccc(O)cc2)NC(=O)[C@H](C(C)C)NC1=O)C(C)C)C(C)C", "test system": "ICR mouse, blood", "setting": "intramammary, 5 mg/kg, day 5, 3 d dosing", "measurement": "ALT", "result": "49.8 ± 3.35 IU/L"}
{"Structure (SMILES)": "C[C@]1(CO)Cc2ncn(-c3ccc(C#N)c(Cl)c3)c2C(=O)O1", "test system": "human, plasma", "setting": "20 mg, first dose fasted", "measurement": "Cmax", "result": "0.728 µM"}
{"Structure (SMILES)": "O[C@H]1CCCN[C@@H]1CCCn1cnc2c(Cl)c(Cl)ccc21", "test system": "healthy volunteers, plasma", "setting": "oral, 150 mg twice daily, together with: pirfenidone 600 mg", "measurement": "AUCtau geometric LS mean", "result": "1.28 µg·h/mL"}
{"Structure (SMILES)": "N#Cc1cc(NC(=O)[C@H]2c3ccccc3C(=O)N(CC(F)(F)F)[C@@H]2c2cccnc2)ccc1F", "test system": "Sprague Dawley rat, both sexes", "setting": "oral, 7 days", "measurement": "well tolerated repeated dose", "result": "≤ 350 mg/kg"}
{"Structure (SMILES)": "CC(C)(O)c1cc(Nc2cc(Oc3cn(C4CC4)nc3C3CCOCC3)ccn2)ccn1", "assay": "Vomiting", "test system": "advanced cancer patients, dose escalation", "setting": "oral, dose not given, 2 weeks on/off, all causality grade ≥3", "measurement": "treatment-emergent adverse events", "result": "0%"}
{"Structure (SMILES)": "CO[C@H]1C[C@@H]2CC[C@@H](C)[C@@](O)(O2)C(=O)C(=O)N2CCCC[C@H]2C(=O)O[C@H]([C@H](C)C[C@@H]2CC[C@@H](OC(=O)NCCOCCOCCOCCOCCOCCOCCOCCOCCC(=O)N3CCc4cc(Cn5nc(-c6ccc7oc(N)nc7c6)c6c(N)ncnc65)ccc4C3)[C@H](OC)C2)C[C@@H](O)[C@H](C)/C=C(\\C)[C@@H](O)[C@@H](OC)C(=O)[C@H](C)C[C@H](C)/C=C/C=C/C=C/1C", "test system": "patients with advanced solid tumours", "setting": "intravenous, 1.6 mg/3 mg weekly, grade ≥3", "measurement": "Pneumonia AE leading to dose reduction", "result": "0%"}
{"Structure (SMILES)": "CCN1CCN(Cc2ccc(Nc3ncc(F)c(-c4cc(F)c5nc6n(c5c4)[C@H](C)CCC6)n3)nc2)CC1", "test system": "patients with advanced solid tumours", "setting": "dose not given, phase Ia monotherapy", "measurement": "AST increased any grade", "result": "25%"}
